Experimental data collected from several papers.
A part holds a random share of what one study measured.

Series 1
Target: Prothrombin, mature alpha-thrombin (F2, Homo sapiens, UniProt P00734)
Method: aptamer microarray, sandwich
Form: DNA with 2'F-ANA
Medium: in vitro
Concentration: 200 nM
Notes: whole 15-mer aptamer, many near background
Added: Cy3 exosite-II aptamer, 400 nM
Reading: higher = stronger binding
Sequence: GGTTGGTGTGGTTGG
| Modification | mean fluorescence intensity |
| --- | --- |
| 2'F-ANA at 2 5 6 10 12 13 | 49 a.u. |
| 2'F-ANA at 1 4 5 7 9 10 11 12 14 | 45.7 a.u. |
| 2'F-ANA at 4 7 10 13 | 69.1 a.u. |
| 2'F-ANA at 1 4 5 6 7 9 10 13 | 45.6 a.u. |
| 2'F-ANA at 2 3 4 6 7 13 14 15 | 284 a.u. |
| 2'F-ANA at 1 3 6 9 10 14 | 59.7 a.u. |
| 2'F-ANA at 1 3 4 5 9 14 15 | 57.1 a.u. |
| 2'F-ANA at 4 5 6 8 10 11 12 14 15 | 46 a.u. |
| 2'F-ANA at 2 5 6 8 15 | 76.2 a.u. |
| 2'F-ANA at 4 9 12 14 15 | 110 a.u. |
| 2'F-ANA at 1 2 3 7 10 11 12 | 82.4 a.u. |
| 2'F-ANA at 2 3 4 7 8 11 | 699 a.u. |
| 2'F-ANA at 1 2 4 5 9 10 11 13 14 | 60.5 a.u. |
| 2'F-ANA at 5 6 8 10 12 15 | 48.2 a.u. |
| 2'F-ANA at 2 3 5 9 10 13 14 | 47.9 a.u. |
| 2'F-ANA at 2 4 8 9 11 12 | 489 a.u. |
| 2'F-ANA at 1 4 5 7 8 9 10 13 15 | 52.6 a.u. |
| 2'F-ANA at 1 2 3 6 9 11 15 | 151 a.u. |
| 2'F-ANA at 2 3 4 6 7 8 11 12 15 | 775 a.u. |
| 2'F-ANA at 1 2 4 7 8 9 12 | 277 a.u. |
| 2'F-ANA at 1 4 7 9 11 | 89.8 a.u. |
| 2'F-ANA at 2 3 4 6 10 13 14 | 173 a.u. |
| 2'F-ANA at 1 2 5 6 8 9 10 11 13 14 | 70 a.u. |
| 2'F-ANA at 7 8 9 12 14 15 | 274 a.u. |
| 2'F-ANA at 1 2 3 4 5 6 11 12 14 | 48.4 a.u. |

Series 2
Target: Histone acetyltransferase KAT6A, both winged helices, GST fusion (KAT6A, Homo sapiens, UniProt Q92794, residues 1-181)
Method: protein binding microarray
Form: double-stranded DNA, one strand shown
Medium: in vitro
Concentration: not given
Notes: 8-mer, flanks averaged, mean of 2 arrays, mostly near background
Baseline: not given
Reading: higher = stronger binding
Residues (chain): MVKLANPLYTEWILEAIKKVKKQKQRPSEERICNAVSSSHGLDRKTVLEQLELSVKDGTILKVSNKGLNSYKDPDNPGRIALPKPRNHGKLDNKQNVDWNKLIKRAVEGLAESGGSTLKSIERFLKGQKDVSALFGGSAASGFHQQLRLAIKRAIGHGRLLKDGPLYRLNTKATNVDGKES
| Sequence | E-score |
| --- | --- |
| AGAGAGTA | -0.121 |
| AGTCTGGC | -0.167 |
| GAGAGCAA | -0.172 |
| ACTATCCC | -0.0072 |
| CGGGTGTC | 0.15 |
| CCCATGAG | -0.104 |
| ACTGCCCC | -0.0429 |
| TAACCGGA | 0.145 |
| AAAATTGG | -0.234 |
| ATCGCCTC | -0.118 |
| GTCGGTTA | 0.101 |
| CATGTGGG | -0.0289 |
| AACAAACG | 0.0593 |
| AACGCACT | 0.129 |
| AAAGCGGA | 0.216 |
| ACTAATCG | -0.038 |
| AACTAGCA | -0.25 |
| ATAGGCTC | -0.0572 |
| AACAGGTG | -0.196 |

Series 3
Target: Interferon regulatory factor 5, full length, phosphomimetic (IRF5, Homo sapiens, UniProt Q13568-2, residues 1-514, S451D/S453D/S456D/S462D)
Method: protein-binding microarray
Form: double-stranded DNA, one strand shown
Medium: in vitro
Concentration: 940 nM top
Notes: 60-bp whole probe
Added: salmon DNA 0.4 mg/ml
Baseline: random background probes
Reading: higher = stronger binding
Shared flanks, not repeated: GCCTAGCAC … GTCTTGATTCGCTTGACGCTGCTG
| Sequence | fitted relative affinity |
| --- | --- |
| TCATGTCTCCCCCATCTTACTGTGCTA | 0.964 z-score |
| GACGGTTCCCGTTTCGGGACGTGCTAG | 1.47 z-score |
| ATCTCTGTCCGTGCTCAGCTCGTGCTA | 0.55 z-score |
| GACGGTTTCAGGTTTCGGGACGTGCTA | 5.75 z-score |
| GACGGACTGGGTATCGGGGCGTGCTAG | 0.504 z-score |
| TTAGAACTGAGACAGGATTAGTGCTAG | -0.355 z-score |
| TTAGATATCAGTCTCGTTTAGTGCTAG | 1.75 z-score |
| AAAGTTTTTCATTTTTTTTCGTGCTAG | 0.836 z-score |
| TTAGTTTTCGGGTATCGGTTAGTGCTA | 4.98 z-score |
| AGACCTTGCTTTATGTGTAGGTGCTAG | -0.107 z-score |
| TCAAAAAATGATTGGTTACTGTGCTAG | -0.182 z-score |
| TCATTTTGTGTTTTCATACTGTGCTAG | 1.01 z-score |
| GACGATCTCAGTAACGAGACGTGCTAG | 0.0896 z-score |
| GACGGACTGAGGACTGGGGACGTGCTA | -0.619 z-score |
| TCAGGACTGGGACTGGGTTAGTGCTAG | -0.565 z-score |
| TTAGATCACAGTATCGATTAGTGCTAG | 3.73 z-score |
| GACGGTATTGGTCTCGGGACGTGCTAG | 1.84 z-score |
| TTAGGACTGGGGACTGGGTTAGTGCTA | -0.573 z-score |
| TTAGGATTGGACTTTCGGTTAGTGCTA | 2.42 z-score |
| GACGGACTGGGGTATCGGGATGTGCTA | 0.652 z-score |

Series 4
Target: RNA binding protein fox-1 homolog 2, RRM domain, GST-SBP tag (RBFOX2, Homo sapiens, UniProt O43251-10, residues 100-194)
Method: RNA Bind-n-Seq
Form: RNA
Medium: in vitro
Concentration: 365 nM
Notes: natural RNA segment, single round, ends assumed
Baseline: no-protein control
Reading: higher = stronger binding
Shared flanks, not repeated: GGGAGUUCUACAGUCCGACGAUC … UGGAAUUCUCGGGUGCCAA
Residues (chain): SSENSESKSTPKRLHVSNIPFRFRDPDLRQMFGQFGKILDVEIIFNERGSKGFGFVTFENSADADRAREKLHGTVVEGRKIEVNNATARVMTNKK
| Sequence | RBNS enrichment (R) |
| --- | --- |
| UCAGACCAAACUAAGUGCUUCCAGAUCCUUUCGGUGCAAUUUCAGAGCUGUGCCAGAUGCUAGACACAUUUAAUAGCUGUCAGAUCAGCUCAUGAUCAUAUCAUGAGAAA | 0.246 |
| AGGGGCAUCGGGCCAGGGAAAACCUCGGAUUAGCAAGCAAUAAAAACAUGACCUCACUCUUCCUCAAAGGAGCCCCUGGUCUUCCCUGUGUGACUCAGUUCUUUCCAUCU | 0.339 |
| CCAUAUAAUCCAACAUUGUUGAGAUGUCUUAGGACAUCUAAGGCAAAACUGGCACAUUUGUUCUGCAGACUAUUGCAGGAAUGUUUUUUCCUAGCAUUUCUAUAUUAUCU | 0.451 |
| GCCUCUGCUCCAGGCAAGGCAGCUGGCUCUGUCUGGGGCAUCGGCCUGGGGCUUGGGUGCCACGUGCUGAGAUUGCAUAGUCAAAACAGCCAUUUUUGCCAACAAUAGCU | 0.27 |
| GCCAGCACAGUCCCCUCACCUCUGGCAGGGCUGCUACCUCCUCAGAGUUUCAGAAGCCCCCACAUGGGGGCUCUAGGAAUGCCGGCAUGCUGGUCUUUCCGACCUGGUGC | 0.346 |
| UAGCAAAAUAACAUUUCUACCCAGGAUAAUAGUCACAGUUUUCCAGGGAGGGAAUGAUAUAAUUUUCAUGACAAUGUCAUGUGAUGAUAGAAUUUCUCCAUUGAUGAAUC | 0.349 |
| AAACUUAUGCUCUAAACAUUUCUAGUUCCCCCAAACAACCUAGAGGCCUUGGGACUUCACAUCCCCCAGCACACAAGCCUCACCACCCCCUGCCAUCCCCCCUCCAUUGC | 0.387 |
| CGUCCAAGGCUGUGCAUUCGUCUAAUUAGCGUCGUGUAUGUUUUCCUUUUAUUUUUUCCAAUAAAAAAGCAGUGGGAUGAAAAUUGCUUUGAUAUAUAGCAGGUAACAUU | 0.683 |
| CUUGGUGUGUAUACAUUAGGGGAGGAUAAUCUGAUGCUAACUUUUUUUUUCUCUUUGGUUCUUGAAUAGCUUAGUUUCUUUAAUAACAAGUCAAACUUUAUUACAACAAU | 0.365 |
| UCUUUACGUUUGUACUGCUUACCUUUACUUUCUCCACAACAGAGACAAGCAGAUUGGUUGAACCUUAUUUAAUGAGGAGUAACAGGCUGUUUUUAAGUGUUUGCCUGUGG | 0.335 |
| AACUUUGAGCAAAUAGCAGUGAUGUUUUAGGAACUGAAAUGUCACACUUAAAGUCUUCAGCCCAGCUACUUCCCUAUUUUUGUGGGGAGAAGAGGGCCUGAUUAGAACUG | 0.243 |
| UGUGCUUGGUGAAAUCAGCAAGAAACCAACCAUAUAAAACAGUGUGUGCCGGGCUCUGACUGAGAAACUGAACAAUGGCAGGCGCUUCAUCUGGGCAGCCAUUUUUCUUC | 0.474 |

Series 5
Target: Sal-like protein 4, full length isoform B (SALL4, Homo sapiens, UniProt Q9UJQ4-2, residues 1-616)
Method: universal PBM
Form: double-stranded DNA, one strand shown
Medium: in vitro
Concentration: not given
Notes: 8-mer, flanks averaged, mean of replicates
Reading: higher = stronger binding
| Sequence | E-score |
| --- | --- |
| TAACTGGA | 0.0601 |
| CGATCCTC | -0.179 |
| TTATAAAA | 0.432 |
| TACTTCAA | 0.181 |
| GCGTTATA | 0.174 |
| CAGCTATA | 0.147 |
| CAAACGTG | 0.0362 |
| AACTATTG | 0.336 |
| GTACCCAC | -0.0564 |
| GGCAATCA | 0.0139 |
| CCGAATCA | -0.0151 |
| GTTTGGTA | 0.23 |
| CAAAATTC | 0.293 |
| GCCCGGGC | -0.343 |
| CTTTCCGC | -0.241 |
| AAGAACCA | -0.0158 |
| CCTCCGTA | -0.181 |
| GCACACAC | -0.0015 |
| GATGTAGA | 0.0516 |
| AGACTTGG | -0.121 |
| ATTAGCAG | 0.0188 |
| AAATAAGC | 0.264 |
| CAGGGAGC | -0.181 |
| CGGACTAG | -0.175 |
| GCCAAGAA | -0.13 |

A few entries again (series 2):
| Sequence | E-score |
| --- | --- |
| AGAGAGTA | -0.121 |
| AAAATTGG | -0.234 |
| CCCATGAG | -0.104 |
| ACTATCCC | -0.0072 |
| CATGTGGG | -0.0289 |
| AACGCACT | 0.129 |
| ACTAATCG | -0.038 |
| TAACCGGA | 0.145 |
| ATCGCCTC | -0.118 |
| CGGGTGTC | 0.15 |
| AACAGGTG | -0.196 |
| AACAAACG | 0.0593 |
| AAAGCGGA | 0.216 |
